Published values gathered from unrelated publications.
Lines come from different studies, so protocols differ. Values joined by “and” are separate records of one study, mostly repeats; a detail may differ.
Target: Serine/threonine-protein kinase PAK 2 (PAK2, Homo sapiens, UniProt Q13177)
Sequence of UniProt Q13177 (whole entry, looked up): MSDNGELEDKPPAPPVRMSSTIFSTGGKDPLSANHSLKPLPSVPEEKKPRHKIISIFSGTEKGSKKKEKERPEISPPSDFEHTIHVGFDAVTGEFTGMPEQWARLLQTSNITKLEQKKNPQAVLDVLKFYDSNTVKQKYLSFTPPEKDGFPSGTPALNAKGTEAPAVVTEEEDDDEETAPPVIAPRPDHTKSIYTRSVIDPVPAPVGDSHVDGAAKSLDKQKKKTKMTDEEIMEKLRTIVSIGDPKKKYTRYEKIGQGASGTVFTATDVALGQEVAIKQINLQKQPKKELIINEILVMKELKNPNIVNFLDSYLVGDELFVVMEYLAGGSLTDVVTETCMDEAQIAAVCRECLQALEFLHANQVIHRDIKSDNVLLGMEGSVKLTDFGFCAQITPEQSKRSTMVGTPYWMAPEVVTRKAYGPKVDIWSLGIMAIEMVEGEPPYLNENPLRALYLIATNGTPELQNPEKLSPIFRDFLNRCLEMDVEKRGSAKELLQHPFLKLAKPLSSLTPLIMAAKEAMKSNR

Compound	assay	system	setting	how to read	measurement	result
O=c1c(-c2ccc(Cl)c(CN3CCOCC3)c2)coc2cc(O)ccc12	enzyme activity, inhibitor	–	1 µM	–	remaining activity	104%
CS(=O)(=O)Nc1cccc(-c2csc3cnc(Nc4ccc(N5CCN(CCCCCOc6cccc7c6C(=O)N(C6CCC(=O)NC6=O)C7=O)CC5)cc4)nc23)c1 (stereo not drawn)	probe labelling, inhibitor, KiNativ chemoproteomics	MOLT-4	1 µM	–	inhibition	25.1%
CNC1C[S+]2CC[S+]3CC[S+](C1)[Ru-4]321([N]=C=S)[n]2c3ccc(OC)cc3c3c4c(c5cc(F)c[n+]1c5c32)C(=O)NC4=O (stereo not drawn)	KinomeScan	–	0.1 µM	reference: untreated	remaining binding	100%
CCN1CCN(Cc2ccc(C(=O)Nc3ccc(C)c(NCc4cnc5[nH]ccc5c4OC)c3)cc2C(F)(F)F)CC1	binding, competition with immobilised ligand	–	1 µM	–	remaining binding	80%
C[C@H]1CN(C(=O)c2cn(-c3ccnc(N)n3)c3cc(C#CC4(O)CCCCC4)ccc23)CCN1	enzyme activity, inhibitor, FRET	–	1 µM	–	inhibition	36%
CN1CCN(Cc2ccc(NC(=O)c3cccc(C#Cc4cnc(N)c5ncccc45)c3)cc2C(F)(F)F)CC1	cell-free assay, competition with immobilised ligand	–	0.5 µM	–	remaining binding	100%
COCC12C(=O)NC3C4(C(OC)CC1O)C1CC5(O)C(OC)C(O)C(OC(C)=O)(C1C5OC(=O)c1ccccc1)C3(O)C(OC)C24 (stereo not drawn)	kinase activity, inhibitor, ProQinase kinase profiling	–	25 µM	reference: control	remaining activity	97% and 82%
NC(=O)[C@@H](O)C[C@H]1CCc2sc3ncnc(O[C@H]4CC[C@H](N5CCOCC5)CC4)c3c21	enzyme activity, inhibitor	–	10 µM	–	inhibition	2%
COc1ccc(NC(=O)Nc2ccc3c(c2)C(=O)N(C(C)CO)CC(C)C(CN(C)Cc2ccc4c(c2)OCO4)O3)cc1 (stereo not drawn)	binding, competition with immobilised ligand	–	10 µM	–	remaining binding	69%
Cc1cccc(O[C@H]2CCC[C@@H](C(C)CNCc3ccncc3)C2)c1 (relative stereo)	enzyme activity, inhibitor	–	10 µM	–	inhibition	-3%
Nc1ncc2c(n1)-c1c([nH]c3ccc(C4=CCOCC4)cc13)CCC2	binding, competition with immobilised ligand	–	1 µM	–	remaining binding	94%
CN1CCN(Cc2ccc(-c3ccc(CO[C@H]4CCC[C@@H]4NC(=O)c4cc(-c5cnn(C)c5)cnc4N)cc3)cc2)CC1	enzyme activity, inhibitor	–	0.1 µM	–	inhibition	8%
CNS(=O)(=O)Nc1nccc(Cc2c(C)c3ccc(Oc4ncccc4F)cc3oc2=O)c1F	cell-free assay, competition with immobilised ligand	–	10 µM	–	remaining binding	81%
O=C(Cc1ccc(OCc2ccccc2)cc1)NC1(C(=O)O)CCN(C(=O)c2ccc(-c3cccc(Cl)c3)cc2)CC1	enzyme activity, inhibitor	–	10 µM	–	activity vs control	98%
C=CC(=O)Nc1cccc(-c2cnc3[nH]cc(C(=O)NC(C)(C)C)c3n2)c1	kinase activity	–	0.1 µM	–	inhibition	3% and 2%

Some of these lines once more:
Compound	assay	system	setting	how to read	measurement	result
NC(=O)[C@@H](O)C[C@H]1CCc2sc3ncnc(O[C@H]4CC[C@H](N5CCOCC5)CC4)c3c21	enzyme activity, inhibitor	–	10 µM	–	inhibition	2%
O=C(Cc1ccc(OCc2ccccc2)cc1)NC1(C(=O)O)CCN(C(=O)c2ccc(-c3cccc(Cl)c3)cc2)CC1	enzyme activity, inhibitor	–	10 µM	–	activity vs control	98%
